# Measured values from different studies.
# Parts stem from different laboratories: compare values within a part only.

# Study 1
# Target: Phosphate system positive regulatory protein PHO4, full length, GST-tagged (PHO4, Saccharomyces cerevisiae, UniProt P07270, residues 1-312)
# Technique: competition protein-binding microarray
# Molecule type: double-stranded DNA, one strand shown
# Matrix: in vitro
# Tested at: 2 µM
# Setting: whole 60-bp probe, lowest competitor level
# With: Cbf1 competitor, 0.05 µM
# Reading: higher = stronger binding
# Residues (chain): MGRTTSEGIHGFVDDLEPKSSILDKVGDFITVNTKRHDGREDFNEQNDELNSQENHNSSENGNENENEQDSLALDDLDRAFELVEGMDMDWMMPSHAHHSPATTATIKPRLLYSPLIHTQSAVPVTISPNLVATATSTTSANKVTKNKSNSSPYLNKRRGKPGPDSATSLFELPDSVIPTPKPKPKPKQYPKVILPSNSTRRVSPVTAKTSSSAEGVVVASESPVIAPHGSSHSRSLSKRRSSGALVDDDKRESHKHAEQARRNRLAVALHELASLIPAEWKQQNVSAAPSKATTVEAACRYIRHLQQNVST
Strand,fluorescence intensity
CAGTCTACCAAGGTGAACGTGTCCACTGTAAAGAAAGTCTTGATTCGCTTGACGCTGCTG,9360 a.u.
AAATTACTAAGTTGCAGTGTGGGTGACGCCGTATGAGTCTTGATTCGCTTGACGCTGCTG,5130 a.u.
TTATTTCCCTTCCCTCGCGTGCCAGTCGGCGATCTCGTCTTGATTCGCTTGACGCTGCTG,7680 a.u.

# Study 2
# Target: Histone acetyltransferase KAT6A, both winged helices, GST fusion (KAT6A, Homo sapiens, UniProt Q92794, residues 1-181)
# Technique: protein binding microarray
# Molecule type: double-stranded DNA, one strand shown
# Matrix: in vitro
# Tested at: not given
# Setting: 8-mer, flanks averaged, mean of 2 arrays, mostly near background
# Relative to: not given
# Reading: higher = stronger binding
# Target sequence (chain): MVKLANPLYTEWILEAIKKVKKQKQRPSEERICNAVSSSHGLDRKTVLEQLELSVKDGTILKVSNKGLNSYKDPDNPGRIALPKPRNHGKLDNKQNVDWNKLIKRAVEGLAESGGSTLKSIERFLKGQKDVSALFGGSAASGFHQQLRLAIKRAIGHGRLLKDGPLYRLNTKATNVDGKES
Strand,E-score
ATATTCCA,-0.198
AATGCAAC,-0.218
TATCCATA,-0.181

# Study 3
# Target: Max-binding protein MNT, bHLH-zipper, MAX partner unstated (MNT, Homo sapiens, UniProt Q99583, residues 220-300)
# Technique: protein-binding microarray
# Molecule type: double-stranded DNA, one strand shown
# Matrix: in vitro
# Tested at: not given
# Setting: k-mer, scored over probes, only values ≥0.25
# Reading: higher = stronger binding
# Construct (chain): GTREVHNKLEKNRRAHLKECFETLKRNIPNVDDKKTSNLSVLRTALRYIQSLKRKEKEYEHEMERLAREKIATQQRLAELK
Strand,E-score
ACGAGGAA,0.333
TGGTCACA,0.251
CACATGCA,0.443

# Further values, each from its own experiment
Molecule,target,assay,system,setting,how to read,measurement,value
"PhoQ, residues 284 288 289 292 302 303 TNSAEL","PhoP, residues 12 14 15 18 19 QWHVF (Escherichia coli, UniProt P23836)","Sort-seq, item: YFP reporter",E. coli,"PhoQ-PhoP variant library, with: 10 µM Mg2+","relative to: high Mg2+ state, higher = stronger signaling",fold induction,2.63

# For quick reference, copied from above (study 1):
Strand,fluorescence intensity
CAGTCTACCAAGGTGAACGTGTCCACTGTAAAGAAAGTCTTGATTCGCTTGACGCTGCTG,9360 a.u.
